Results of several laboratories.
Numbered parts are unrelated; each lists some results of a single study. Values joined by “and” are separate records of one study, mostly repeats; a detail may differ.
Chain of UniProt P54753 (whole entry, looked up): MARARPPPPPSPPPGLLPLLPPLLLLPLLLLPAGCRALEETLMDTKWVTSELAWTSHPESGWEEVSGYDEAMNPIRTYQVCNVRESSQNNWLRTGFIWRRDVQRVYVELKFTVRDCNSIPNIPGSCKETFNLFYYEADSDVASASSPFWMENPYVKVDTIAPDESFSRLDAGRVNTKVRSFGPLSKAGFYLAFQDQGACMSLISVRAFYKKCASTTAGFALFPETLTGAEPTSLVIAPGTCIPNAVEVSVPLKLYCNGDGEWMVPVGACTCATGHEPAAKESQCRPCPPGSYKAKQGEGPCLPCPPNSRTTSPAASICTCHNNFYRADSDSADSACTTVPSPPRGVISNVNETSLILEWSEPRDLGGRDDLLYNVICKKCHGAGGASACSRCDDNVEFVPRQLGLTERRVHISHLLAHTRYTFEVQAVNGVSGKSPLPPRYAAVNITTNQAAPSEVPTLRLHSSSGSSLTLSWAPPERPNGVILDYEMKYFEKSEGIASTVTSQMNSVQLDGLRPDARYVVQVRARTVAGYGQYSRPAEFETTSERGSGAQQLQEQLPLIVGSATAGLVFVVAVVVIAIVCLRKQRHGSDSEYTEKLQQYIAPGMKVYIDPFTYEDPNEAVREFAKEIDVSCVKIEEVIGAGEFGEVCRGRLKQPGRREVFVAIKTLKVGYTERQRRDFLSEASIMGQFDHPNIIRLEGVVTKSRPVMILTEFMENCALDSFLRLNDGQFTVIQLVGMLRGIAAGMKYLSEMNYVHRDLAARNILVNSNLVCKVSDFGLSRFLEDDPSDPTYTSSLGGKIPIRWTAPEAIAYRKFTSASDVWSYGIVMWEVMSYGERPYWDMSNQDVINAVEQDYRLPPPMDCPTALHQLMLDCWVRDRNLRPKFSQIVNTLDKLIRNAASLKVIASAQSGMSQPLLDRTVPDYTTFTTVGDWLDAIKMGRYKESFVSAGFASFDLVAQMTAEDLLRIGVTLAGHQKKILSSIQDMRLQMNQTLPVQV
Chain of UniProt O00141 (whole entry, looked up): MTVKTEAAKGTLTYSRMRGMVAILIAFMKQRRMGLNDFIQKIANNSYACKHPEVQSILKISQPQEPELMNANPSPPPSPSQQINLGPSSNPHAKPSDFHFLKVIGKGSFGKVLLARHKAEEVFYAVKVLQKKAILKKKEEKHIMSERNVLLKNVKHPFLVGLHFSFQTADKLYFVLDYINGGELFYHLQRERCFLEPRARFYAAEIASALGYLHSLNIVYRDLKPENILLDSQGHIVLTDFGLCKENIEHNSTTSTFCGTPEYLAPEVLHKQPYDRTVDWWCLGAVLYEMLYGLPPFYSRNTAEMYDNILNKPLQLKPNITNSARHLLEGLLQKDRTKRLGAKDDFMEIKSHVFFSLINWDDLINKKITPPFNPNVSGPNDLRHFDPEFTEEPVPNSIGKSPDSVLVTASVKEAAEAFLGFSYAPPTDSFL
Chain of UniProt Q9H4A3 (whole entry, looked up): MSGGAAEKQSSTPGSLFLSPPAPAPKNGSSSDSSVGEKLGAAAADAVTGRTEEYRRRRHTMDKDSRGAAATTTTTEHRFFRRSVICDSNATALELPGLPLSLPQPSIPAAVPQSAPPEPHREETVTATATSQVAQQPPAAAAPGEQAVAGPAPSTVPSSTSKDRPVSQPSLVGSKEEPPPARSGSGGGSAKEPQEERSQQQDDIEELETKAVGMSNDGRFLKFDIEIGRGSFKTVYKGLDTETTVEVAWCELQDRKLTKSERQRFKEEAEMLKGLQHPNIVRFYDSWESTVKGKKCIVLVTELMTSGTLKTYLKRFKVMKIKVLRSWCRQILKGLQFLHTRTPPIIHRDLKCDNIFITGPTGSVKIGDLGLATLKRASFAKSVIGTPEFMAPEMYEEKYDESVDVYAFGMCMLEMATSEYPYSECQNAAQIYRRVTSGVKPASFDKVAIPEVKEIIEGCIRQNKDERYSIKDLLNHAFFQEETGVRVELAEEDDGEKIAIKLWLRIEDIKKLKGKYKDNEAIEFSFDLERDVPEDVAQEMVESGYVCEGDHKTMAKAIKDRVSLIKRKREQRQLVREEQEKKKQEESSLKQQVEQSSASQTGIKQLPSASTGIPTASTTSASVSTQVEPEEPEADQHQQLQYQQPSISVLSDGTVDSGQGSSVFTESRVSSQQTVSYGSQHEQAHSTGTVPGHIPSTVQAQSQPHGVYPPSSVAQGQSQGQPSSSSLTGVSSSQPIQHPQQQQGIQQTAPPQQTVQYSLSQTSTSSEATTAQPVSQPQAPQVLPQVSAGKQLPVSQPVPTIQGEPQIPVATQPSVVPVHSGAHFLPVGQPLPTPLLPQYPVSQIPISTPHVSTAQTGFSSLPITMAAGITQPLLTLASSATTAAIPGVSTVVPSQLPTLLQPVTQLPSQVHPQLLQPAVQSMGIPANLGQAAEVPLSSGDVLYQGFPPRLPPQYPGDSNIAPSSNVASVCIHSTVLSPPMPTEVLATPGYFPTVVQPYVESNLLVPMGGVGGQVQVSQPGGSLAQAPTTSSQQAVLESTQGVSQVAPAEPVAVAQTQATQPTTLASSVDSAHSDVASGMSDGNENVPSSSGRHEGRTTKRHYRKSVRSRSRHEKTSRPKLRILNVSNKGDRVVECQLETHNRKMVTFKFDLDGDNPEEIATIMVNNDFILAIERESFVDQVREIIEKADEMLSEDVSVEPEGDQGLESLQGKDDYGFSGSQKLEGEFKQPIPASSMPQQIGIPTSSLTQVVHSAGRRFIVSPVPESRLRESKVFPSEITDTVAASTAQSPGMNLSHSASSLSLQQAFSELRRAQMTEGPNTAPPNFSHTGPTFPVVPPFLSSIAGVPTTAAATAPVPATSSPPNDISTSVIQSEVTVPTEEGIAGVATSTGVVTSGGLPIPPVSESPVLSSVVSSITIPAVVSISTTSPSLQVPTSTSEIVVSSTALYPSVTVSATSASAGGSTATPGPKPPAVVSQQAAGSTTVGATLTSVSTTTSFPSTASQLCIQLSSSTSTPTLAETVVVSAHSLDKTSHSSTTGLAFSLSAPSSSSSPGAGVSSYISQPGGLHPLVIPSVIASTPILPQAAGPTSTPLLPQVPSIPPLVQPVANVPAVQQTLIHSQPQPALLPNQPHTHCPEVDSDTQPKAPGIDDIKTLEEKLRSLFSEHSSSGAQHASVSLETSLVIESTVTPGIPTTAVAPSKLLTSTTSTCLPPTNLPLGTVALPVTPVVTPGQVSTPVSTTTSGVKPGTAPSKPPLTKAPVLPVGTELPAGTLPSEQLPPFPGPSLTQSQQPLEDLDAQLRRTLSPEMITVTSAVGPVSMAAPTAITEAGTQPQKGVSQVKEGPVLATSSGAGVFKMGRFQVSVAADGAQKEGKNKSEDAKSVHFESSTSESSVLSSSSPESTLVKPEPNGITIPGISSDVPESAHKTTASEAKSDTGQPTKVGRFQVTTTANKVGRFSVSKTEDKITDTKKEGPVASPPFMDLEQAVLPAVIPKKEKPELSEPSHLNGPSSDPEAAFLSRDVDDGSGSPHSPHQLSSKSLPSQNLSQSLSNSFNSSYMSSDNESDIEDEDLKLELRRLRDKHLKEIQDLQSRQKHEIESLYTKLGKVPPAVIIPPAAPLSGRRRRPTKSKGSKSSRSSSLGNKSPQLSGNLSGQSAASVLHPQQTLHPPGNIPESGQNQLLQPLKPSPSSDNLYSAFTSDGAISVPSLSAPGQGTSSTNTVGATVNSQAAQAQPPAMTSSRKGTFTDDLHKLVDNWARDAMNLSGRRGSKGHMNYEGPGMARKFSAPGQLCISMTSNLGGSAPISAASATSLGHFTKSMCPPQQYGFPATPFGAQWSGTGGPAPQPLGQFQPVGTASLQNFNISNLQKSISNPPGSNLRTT

Study 1
Compound: CCC(=O)N[C@@H]1CC[C@H](C(=O)N(C)c2ccc(-c3nc4ccccc4o3)cc2)C1
Effect on: cell-free assay
Method: competition with immobilised ligand
Tested at: 1 µM
| target | remaining binding [%] |
| --- | --- |
| SGK1 (Homo sapiens, UniProt O00141) | 100 |
| COQ8B (Homo sapiens, UniProt Q96D53) | 94 |
| LATS1 (Homo sapiens, UniProt O95835) | 58 |
| EPHB3 (Homo sapiens, UniProt P54753) | 100 |
| MAPK12 (Homo sapiens, UniProt P53778) | 73 |
| NEK3 (Homo sapiens, UniProt P51956) | 73 |
| CSNK1E (Homo sapiens, UniProt P49674) | 100 |
| WNK1 (Homo sapiens, UniProt Q9H4A3) | 100 |
| CSNK1A1L (Homo sapiens, UniProt Q8N752) | 100 |
| MAPK14 (Homo sapiens, UniProt Q16539) | 95 |
| ERBB4 (Homo sapiens, UniProt Q15303) | 100 |
| PIP5K1A (Homo sapiens, UniProt Q99755) | 86 |
| Macrophage colony-stimulating factor 1 receptor, autoinhibited (CSF1R, Homo sapiens, UniProt P07333) | 100 |

Study 2
Target: Serine/threonine-protein kinase TAO1 (TAOK1, Homo sapiens, UniProt Q7L7X3)
Chain of UniProt Q7L7X3 (whole entry, looked up): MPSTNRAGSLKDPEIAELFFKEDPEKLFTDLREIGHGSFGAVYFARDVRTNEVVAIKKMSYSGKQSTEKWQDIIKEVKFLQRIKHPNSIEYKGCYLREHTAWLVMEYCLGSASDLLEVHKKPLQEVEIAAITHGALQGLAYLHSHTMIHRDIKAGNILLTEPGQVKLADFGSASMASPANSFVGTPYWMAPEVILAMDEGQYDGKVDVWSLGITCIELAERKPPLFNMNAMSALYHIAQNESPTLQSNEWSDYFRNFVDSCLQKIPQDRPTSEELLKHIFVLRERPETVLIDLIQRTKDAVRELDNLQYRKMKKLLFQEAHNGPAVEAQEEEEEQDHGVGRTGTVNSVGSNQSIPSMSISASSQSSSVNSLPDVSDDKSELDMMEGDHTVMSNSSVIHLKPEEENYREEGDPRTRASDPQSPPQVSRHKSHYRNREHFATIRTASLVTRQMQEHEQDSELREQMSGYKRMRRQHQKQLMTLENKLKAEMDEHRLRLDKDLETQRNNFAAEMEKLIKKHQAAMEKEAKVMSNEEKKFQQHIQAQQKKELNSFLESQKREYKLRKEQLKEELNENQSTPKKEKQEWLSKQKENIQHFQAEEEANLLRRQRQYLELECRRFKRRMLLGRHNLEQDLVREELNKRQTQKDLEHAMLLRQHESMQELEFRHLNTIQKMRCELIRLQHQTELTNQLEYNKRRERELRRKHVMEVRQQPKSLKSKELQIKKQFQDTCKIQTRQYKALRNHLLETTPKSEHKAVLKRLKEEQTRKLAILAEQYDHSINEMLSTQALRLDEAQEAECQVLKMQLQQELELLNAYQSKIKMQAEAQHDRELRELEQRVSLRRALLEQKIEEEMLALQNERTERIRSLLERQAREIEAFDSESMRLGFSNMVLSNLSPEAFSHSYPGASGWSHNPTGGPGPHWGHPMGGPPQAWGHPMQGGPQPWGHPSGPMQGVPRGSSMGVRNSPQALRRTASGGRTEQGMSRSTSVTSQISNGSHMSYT
Effect on: enzyme activity
Mode: inhibitor
Tested at: 0.5 µM
Reference: control
| SMILES | remaining activity [%] |
| --- | --- |
| CCN(CC)CCNC(=O)c1c(C)[nH]c(/C=C2\C(=O)Nc3ccc(Cl)cc32)c1C | 65.8 |
| Nc1cccc(-c2cc3c(Oc4cccc(O)c4)ncnc3[nH]2)c1 | 142 |
| C[C@@H]1CCN(C(=O)CC#N)C[C@@H]1N(C)c1ncnc2[nH]ccc12 | 99.9 |
| CN(C)C[C@H]1CCn2c(c(C3=C(c4cn(C)c5ccccc45)C(=O)NC3=O)c3ccccc32)C1 | 93 |
| O=C1c2ccccc2-c2n[nH]c3cccc1c23 | 92.5 |
| COc1cc2ncnc(Nc3cccc(Cl)c3)c2cc1OC | 108 |
| N#C/C(=C\c1ccc(O)c(O)c1)C(=O)NCc1ccccc1 | 95.1 |
| CCN(CC)C(=O)c1ccc(Nc2nc(OCC3CCCCC3)c3[nH]cnc3n2)cc1 | 57.9 |
| Cc1cc2ncc(-c3ccccc3)nc2cc1C | 94.3 |
| O=C(NC(NC(=S)Nc1ccc(F)c([N+](=O)[O-])c1)C(Cl)(Cl)Cl)C(c1ccccc1)c1ccccc1 (centres unmarked) | 104 |
| O=C1C(Cl)=C(N2C(=O)CCC2=O)C(=O)c2ccccc21 | 83.1 |
| Ic1cccc(CSc2nnc(-c3ccncc3)o2)c1 | 101 |
| N#Cc1c(NC(=O)c2cccc3ccccc23)sc2c1CCCC2 | 106 |
| Cc1cn(-c2cc(NC(=O)c3ccc(C)c(Nc4nccc(-c5cccnc5)n4)c3)cc(C(F)(F)F)c2)cn1 | 78.5 |
| Cc1nc2cc3nc(-c4cccs4)cnc3cc2n1C | 110 |
| CCOc1nc(NC(=O)Cc2cc(OC)ccc2OC)cc(N)c1C#N | 109 |
| CN([C@@H](Cc1ccc(OS(=O)(=O)c2cccc3cnccc23)cc1)C(=O)N1CCN(c2ccccc2)CC1)S(=O)(=O)c1cccc2cnccc12 | 98.7 |
| COc1cc2ncnc(Nc3ccc(O)c(Br)c3)c2cc1OC | 93.3 |
| Cn1nc2c3c(cccc31)C(=O)c1ccccc1-2 | 100 |
| c1ccc(-c2[nH]ncc2-c2ccnc3ccccc23)nc1 | 93 |
| COc1cc2c(cc1OC)-c1[nH]nc(Nc3cccc(F)c3)c1C2 | 76.3 |

Study 3
Species: human
Matrix: microsomes or S9
Tested at: 2 µM
Time: 0.5 h
| SMILES | remaining compound |
| --- | --- |
| CCOc1ccc(S(=O)(=O)N2CCC3(CC2)Nc2ccccc2-n2cccc23)cc1 | 5.65% |
| CN(Cc1nccs1)S(=O)(=O)c1ccc2c(c1)CN(S(C)(=O)=O)CC2 | 28.7% |
| COc1cc(OC)c(NC(=O)N2Cc3c(sc4c3CCCC4)-n3cccc3C2C)cc1Cl (centres unmarked) | < 1% |
| CCOC(=O)c1[nH]c(=O)n(CCS(C)(=O)=O)c1C | 72.6% |
| CCCNc1c(C(=O)OC)nc2ccc(Cl)cn12 | 0.0634% |
| CCOC(=O)c1c(-c2ccccc2)noc1-c1c[nH]nn1 | 80.6% |
| Cc1cc(C)n2nc(C(=O)N3CCCC34CC=CC4)cc2n1 | > 99.9% |
| CCCC(=O)Nc1nc2ncc(Br)nc2s1 | 74.9% |

Study 4
Cell line: mouse MPNST tumor cells
Method: high-content immunofluorescence imaging
Refers to: nuclear SOX9
Tested at: 10 µM
Time: 12 h
Setting: mean of 2 replicates
Reference: DMSO control
Direction: higher = more nuclear SOX9
| Structure (SMILES) | nuclear SOX9 intensity |
| --- | --- |
| Nc1ncnc2c1ncn2[C@@H]1O[C@H](CO)C[C@H]1O | 118 % of DMSO |
| CCCCCOC(=O)Nc1nc(=O)n([C@@H]2O[C@H](C)[C@@H](O)[C@H]2O)cc1F | 86.3 % of DMSO and 97.6 % of DMSO |
| C#C[C@]1(O)CC[C@H]2[C@@H]3CCC4=CC(=O)CC[C@@H]4[C@H]3CC[C@@]21CC | 80 % of DMSO |
| CCC(F)(F)c1cc(N2CCC(S(C)(=O)=O)CC2)nc2sc(C(N)=O)c(N)c12 | 118 % of DMSO |
| COc1cc(C(C)C)c2c(c1)S(=O)(=O)N(COc1cc(=O)n3cccc(OCCN4CCCCC4)c3n1)C2=O | 106 % of DMSO |
| CC(ONC(=O)c1cc(C(F)(F)F)cc(C(F)(F)F)c1)C(=O)Nc1ccc(Cl)cc1 (centres unmarked) | 96.7 % of DMSO |
| CC(C)(C)c1ccc(C(=O)Nc2cn3cc(-n4ccnc4)ccc3n2)cc1 | 107 % of DMSO |
| CNCCc1ccccn1 | 101 % of DMSO |

Excerpt of the above (study 1):
| target | remaining binding [%] |
| --- | --- |
| EPHB3 (Homo sapiens, UniProt P54753) | 100 |
| MAPK12 (Homo sapiens, UniProt P53778) | 73 |
| NEK3 (Homo sapiens, UniProt P51956) | 73 |
